Measured values of several laboratories.
Parts stem from different laboratories: compare values within a part only.

Sample 1 — method: RNA Bind-n-Seq; molecule type: RNA; medium: in vitro; tested at: 365 nM; baseline: no-protein control; reading: higher = stronger binding
Target: RNA binding protein fox-1 homolog 2, RRM domain, GST-SBP tag (RBFOX2, Homo sapiens, UniProt O43251-10, residues 100-194)
Notes: natural RNA segment, single round, ends assumed
All sequences stand within: GGGAGUUCUACAGUCCGACGAUC … UGGAAUUCUCGGGUGCCAA
Residues (chain): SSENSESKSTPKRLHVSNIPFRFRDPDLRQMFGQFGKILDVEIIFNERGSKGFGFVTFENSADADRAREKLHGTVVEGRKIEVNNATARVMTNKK
Strand | RBNS enrichment (R)
AAGAAAAAGGCAGAGGCUUCAGUUUUCUCUCGCCCAAGUCCCUUGCUCCUCCCAACUGCGGCUAAGCAGAGGAUGGCAGUGUUGGAAUAAGAUCUCUCAAAUCUUGGAUU | 0.302
AAGCAGCUUCAGGAGAAAAAGAGCAAUUACUUUUGAAUUCUCCAAUAAAUCUGGACAAUGCCGUUAGCGAAGAGCCCUUCCUGGUGAAGGCAAACCCAUGGUCACAGCAG | 0.305
UACCAUUGCAGUUUGUUCUUUUUUUAAAGUCUAAUUUGCAGCCAAGAACGAGUAAUUCUCACCCCAAGCAACAUCUAAUAGGGACUGAGUGACCCCAGCCCAGCCUAGUG | 0.35
AACUUGGUGAAGGAUGGUGCUCAUCCUUAUGAUGAUGGAUAAGGGGGAGGGGUUUGGGUCCUCACACUGAGAGCUUAUACCCAGUUGGAGCCCAAGAAGAGCUAGACUGA | 1
AAUCCAGAAUCCCUGGUCUUGAGUCCCCAGAACUUUGCCUCUUGACUGUCCCUUCUCUUCCUACCUCCAUCCAUGGAAAAUUAGUUAUUUUCUGAUCCUUUCCCCUGCCU | 0.661
UUGGUAUACUGGUAUGACUACGUCUUAAGUCAGAUUUUUAUUUAUGAGUCUUUGAGACUAAAUUCAAUCACCACCAGGUAUCAAAUCAACUUUUAUGCAGCAAAUAUAUG | 0.739
CUACAGCAUCAUUGCAUAAUUCUUGAUGGUAAUAAAUUUGAAUAAUCAGAUUUCUUACAAACCAGGACUCUGUCUCAGCUGUUUCUGGAACCAAAGAGUCUGGGCCAAAU | 0.813
GAUGUUUGCUUGUCUGCUUUCUCUUUAUAGUACAUGAACAGUUCAGCCUUAGACUAUGUAACUGUUUUCUUAUCUUUAGCUGAAAAUGGGGGGAGGGCAUUCUGUACUGC | 1.33
UGAUUAAAACAUUUGCUCAUAGCCAGCCUGCCUUUCUACGAGAUAGGCAGGACCUCUGAGCGAUGUAGGUUUUUUUAUUUUUAAGUUGUAUUUCUUUUCUCCCUGCUCUU | 0.319
AGGUAAACGGAAGGGGCGUCGUUGUCUUUAAGGUGAGGCGGCCAAGCACUGCUCCGUAUAUAAGUUAAUUUGUAAAUCCGGAGCAGACGGCAUGCUAAGUCCUGUAAUUC | 2.68
GUUGUAUUGUAAGUGGCACUGGGAACCCAGGGUUUCCUUGGGAGUUGAGGCCUUCUUUAUUCCUGCUCUGUCAGCUUUCAUGGUCACUGGAAAUCACUGCCACAGUACAG | 0.248
UUAUUGGGCCACAGGAGGGUCAAUCUUGUGGGUCUGUGCUGUAAUCUGCCUUACUUGCACCCACCAGGAUAAGGACAUAAACGGUGCUCAACUUUUCUGCCACCAGACUG | 0.388

Sample 2 — method: RNA Bind-n-Seq; molecule type: RNA; medium: in vitro; tested at: not given; baseline: input RNA pool; reading: higher = stronger binding
Target: RING finger protein unkempt homolog, zinc fingers 1-6, GST-SBP tag (UNK, Homo sapiens, UniProt Q9C0B0, residues 30-357)
Chain of UniProt Q9C0B0 (30-357, looked up): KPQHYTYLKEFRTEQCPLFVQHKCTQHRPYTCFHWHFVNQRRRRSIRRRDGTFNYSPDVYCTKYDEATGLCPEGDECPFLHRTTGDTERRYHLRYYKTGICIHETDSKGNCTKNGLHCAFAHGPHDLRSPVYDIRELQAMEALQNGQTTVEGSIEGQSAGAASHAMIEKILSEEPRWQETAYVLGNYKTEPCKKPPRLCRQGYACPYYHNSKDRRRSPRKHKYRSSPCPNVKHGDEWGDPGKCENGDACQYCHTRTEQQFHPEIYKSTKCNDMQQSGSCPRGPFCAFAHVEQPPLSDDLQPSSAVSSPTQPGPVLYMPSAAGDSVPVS
Notes: RNA with constant flanks, human and mouse sites, ends assumed
All sequences stand within: GGGAGUUCUACAGUCCGACGAUC … CAACAGAGGAUUGAGCAUCA
Strand | bound/input enrichment
ACCCUGCGGAGAAAGGGCAAUAUCAUUCUAAUCCCUGAAAGAAGCAACAGCCCCGAAAACACUAGAAAUAUCUUCUACAAAGGAACCUCCCCCACACGGGCUUAUAAGGAUUGAGUGAUG | 0.909 ratio
UUUUUUGGGGGUGGAUUUCCUUCAGGUAGUGUACAUUCUUUUUCAAAUGGAAGAGCUGGUUAUAGCCAACAACAUCAGCAUCGACAUAGUGGACAUGAAAGAGAAGAGGAAAGAGGAGAU | 1.59 ratio
AGGAGUGAUGUAAUGGAGCUCCUUAAGAAGUCGGCCGAGGAAAGAAAACCUUAAAGGGACACUAGUGUGAUGCUUUGUCUUAAUGUGGGUUUUUCUGUUUCAGUUUGCCACCUCCAGAUG | 0.132 ratio
AGGGAAUAAUGCUGGGAGGAGCACAGAGACAUAUCCAGGGAGAGAGGGCGCUCACGCCCGAAGGCCUCCUGUGAGCUCUGGGAUGGCCUGCCAUCUAUCUGCUCCUGCUGUUCCCCAGGG | 0.11 ratio
GGCUUUGAGCUUCCUCAGGGGCCUCUGGGAACAUCCUUCAAAGGAAAAUAUGGGUGUGUAGACUACUGGGUGAAGGCUUUUCUUGACCGCCCGAGCCAGCCAACUCAAGAGACAAAGAAA | 0.21 ratio
CUGAUUGUGACAUUUGUGCUGUUGCUUCCUGGACUAAACCAACAUGGGAUCAUUCUGAAGUACAUUGGAAUGGCCAAAAGGGAGAUAAACAAACUUCUCAAGCAAAAAGAAAAGAAAAAU | 0.159 ratio
GCCAUGUGAUUUGCAAAUGGGGGGAAGCUACUGUGAGCGUGUGUUUUUUUAAUUUACACUAUAGAGUGAUUUUUUUUUCCCCCAACGUCAAGUUUUUACCUUGCAUGUACUGGAGUAUUU | 0.998 ratio
AAGAUCUCUGAUGAUCUGAUGCAGAAGAUCAGUACUCAGAACCGCCGGGCCCUAGACCUUGUAGCCGCAAAGUGUUACUAUUAUCACGCCCGGGUCUAUGAGUUCCUGGACAAGCUGGAU | 0.149 ratio

Sample 3 — method: protein binding microarray; molecule type: double-stranded DNA, one strand shown; medium: in vitro; tested at: not given; baseline: not given; reading: higher = stronger binding
Target: Histone acetyltransferase KAT6A, winged helix 1, GST fusion (KAT6A, Homo sapiens, UniProt Q92794, residues 1-85)
Notes: 8-mer, flanks averaged, mean of 2 arrays, mostly near background
Residues (chain): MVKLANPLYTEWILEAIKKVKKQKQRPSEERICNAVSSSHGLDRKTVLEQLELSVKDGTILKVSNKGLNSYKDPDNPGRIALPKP
Strand | E-score
ATCTACGC | 0.239
ATAGTTGA | -0.085
GATTCTCC | -0.0632
CAGGCATG | -0.0245
ATGTAATC | -0.117
AGTCCTGG | -0.217
GGAAAAGA | -0.108
CCCGCTCA | 0.305
AGTGCCAT | -0.191
ACCGGGCG | 0.313
ACCCACTC | -0.0523
GTTTGGTA | -0.0132
AGCTGTCG | -0.00136
CTGTTTGA | -0.265
GGGAGAAA | -0.163
GGGTGAAA | -0.15
GACTCGGA | 0.0927
AATCAAGA | -0.148
AGGTAAAA | -0.14
CTTGCTCC | -0.246
GGGCCAAC | 0.0522
AATCTGTA | -0.0158
GTGATAAC | -0.0878
ATTTTCTA | -0.319
ATTACCCA | -0.215

Sample 4 — method: competition protein-binding microarray; molecule type: double-stranded DNA, one strand shown; medium: in vitro; tested at: 2 µM; together with: Pho4 competitor, 0.05 µM; reading: higher = stronger binding; all sequences stand within: … GTCTTGATTCGCTTGACGCTGCTG
Target: Centromere-binding protein 1, full length, His-tagged (CBF1, Saccharomyces cerevisiae, UniProt P17106, residues 1-351)
Chain of UniProt P17106 (whole entry, looked up): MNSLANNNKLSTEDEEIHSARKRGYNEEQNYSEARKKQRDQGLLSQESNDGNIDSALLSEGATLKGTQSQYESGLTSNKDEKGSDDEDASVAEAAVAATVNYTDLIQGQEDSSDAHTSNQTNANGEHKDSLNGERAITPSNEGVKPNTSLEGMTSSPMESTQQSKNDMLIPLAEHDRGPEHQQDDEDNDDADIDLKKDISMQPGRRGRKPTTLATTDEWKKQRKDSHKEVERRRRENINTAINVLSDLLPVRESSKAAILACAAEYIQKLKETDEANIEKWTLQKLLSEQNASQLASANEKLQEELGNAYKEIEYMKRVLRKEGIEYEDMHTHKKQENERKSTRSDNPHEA
Notes: whole 60-bp probe, lowest competitor level
Strand | fluorescence intensity
GTCTTGTCTCATTGAAGCGTGGGTGTCCCCACTTCA | 78.8 a.u.
CAGCTGGTCTCCCAGCACGTGGCCTGGAGCCCAGCC | 1220 a.u.
GTACGTTATTGCTGGCACGATCCTGTCGCTACGGCC | 64.9 a.u.
GTTTCTCAGATTCTGCACATGGTACTTGATCTTGGT | 138 a.u.
CACAATTGGTGGTGGACCGTGACGGACACCCAAAGC | 88.3 a.u.
CATACCCAACCTTGAGGTGTGGGTGAAGATATTTGT | 72 a.u.
CGACAGCTGCACCATCACGTGCCGATTGTCCTTATT | 3390 a.u.
GTCTGCCGTTTGTTACATGTGGATGTGTTACTGAGT | 112 a.u.
CAATTTCATATTCACCACGTGCCGAACTTTGGGATG | 2470 a.u.
CGGTCGGATGGAAAACACGTGACAAGAAAGTCCCCG | 9860 a.u.
CATACCCAACCTTGTCTTGTGGGTGAAGATATTTGT | 76.5 a.u.
GACGATGATAAACAGCACGATGTTTCCCCCGGCGGC | 78.7 a.u.
TACAGCATATTTCGTCACGTGTGTTCGTCGAGCTGG | 6450 a.u.

Sample 5 — method: protein-binding microarray; molecule type: double-stranded DNA, one strand shown; medium: in vitro; tested at: 940 nM top; notes: 60-bp whole probe; together with: salmon DNA 0.4 mg/ml; baseline: random background probes; reading: higher = stronger binding; all sequences stand within: GCCTAGCAC … GTCTTGATTCGCTTGACGCTGCTG
Target: Interferon regulatory factor 5, full length, phosphomimetic (IRF5, Homo sapiens, UniProt Q13568-2, residues 1-514, S451D/S453D/S456D/S462D)
Strand | fitted relative affinity [z-score]
GACGGCCTGGGTCTCGGGACGTGCTAG | -0.165
CTCTGTCCCCCTTTTATATTGTGCTAG | 0.625
GACGGTTTCATTTCCCTGACGTGCTAG | 5.37
TTAGGTATCGACACTGGGTTCGTGCTA | 5.22
TCATATGTAATCATTCACACTGTGCTA | 0.368
GAGGATTTCAGTTCCGAGACGTGCTAG | 0.269
GACGATTTCAGTATCGACACGTGCTAG | 3.31
GACGGTATAGGGTATCGGGACGTGCTA | 0.55
GACGGTCTCGGTCTCGGGAAGTGCTAG | 4.13
TGAGGTTTCGGGACTGGGTTAGTGCTA | 5.06
TTAGGACTGCTTATCCTGTAGTGCTAG | -0.208
TTAGAGTTCAGTCTCGATTAGTGCTAG | 3.31
GACGGTATCGGTCCCGGGACGTGCTAG | 8.25
GACGATCTCAGACTGGATACGTGCTAG | -0.064
TCATTTTTGCTTACGATGCAGTGCTAG | 0.128
GTGAACCGGTCTCTCAGACCGTGCTAG | -0.615

Some of these lines once more (sample 4):
Strand | fluorescence intensity
CGGTCGGATGGAAAACACGTGACAAGAAAGTCCCCG | 9860 a.u.
GTCTGCCGTTTGTTACATGTGGATGTGTTACTGAGT | 112 a.u.
TACAGCATATTTCGTCACGTGTGTTCGTCGAGCTGG | 6450 a.u.
GTCTTGTCTCATTGAAGCGTGGGTGTCCCCACTTCA | 78.8 a.u.
CAATTTCATATTCACCACGTGCCGAACTTTGGGATG | 2470 a.u.
GACGATGATAAACAGCACGATGTTTCCCCCGGCGGC | 78.7 a.u.
CATACCCAACCTTGAGGTGTGGGTGAAGATATTTGT | 72 a.u.
GTTTCTCAGATTCTGCACATGGTACTTGATCTTGGT | 138 a.u.
CGACAGCTGCACCATCACGTGCCGATTGTCCTTATT | 3390 a.u.
CACAATTGGTGGTGGACCGTGACGGACACCCAAAGC | 88.3 a.u.
CATACCCAACCTTGTCTTGTGGGTGAAGATATTTGT | 76.5 a.u.
CAGCTGGTCTCCCAGCACGTGGCCTGGAGCCCAGCC | 1220 a.u.
